Measurements of several laboratories.
Lines come from different studies, so protocols differ. Numbers after ± are the reported error.

C=C[CH2][Pd-]([Cl])[Cl].Cc1cc(C)c(-n2c[n+](-c3c(C)cc(C)cc3C)c3c2-c2cccc4cccc-3c24)c(C)c1  IC50 (CHO; cell growth or viability, MTT; 72 h): 3.7 µM
C=C(C)[C@@H]1CC[C@]2(C(=O)O)CC[C@]3(C)[C@H](CC[C@@H]4[C@@]5(C)CC[C@H](O[C@@H]6O[C@@H](C)[C@H](O)[C@@H](O)[C@H]6OC)C(C)(C)[C@@H]5CC[C@]43C)[C@@H]12  IC50 (human Skin fibroblast; cell growth or viability; 48 h): 22 µM
CC(=O)O[C@H]1CC[C@]2(C)[C@H]3CC=C4[C@@H]5[C@@H](C)[C@H](C)CC[C@]5(C(=O)O)CC[C@@]4(C)[C@]3(C)CC[C@H]2C1(C)C  IC50 (AGS; cell growth or viability, MTT; 24 h): 42.9 µM
Nc1ccn([C@@H]2O[C@H](CO)[C@@H](O)[C@@H]2O)c(=O)n1  IC50 (LO2 cells; viability, MTT; 24 h): 430 ± 40 µM
O=C(O)/C(Cc1ccccc1[N+](=O)[O-])=N/Nc1nc2c(s1)CS(=O)(=O)c1cc(Cl)c(Cl)cc1-2  IC50 (CRL-2351; cell growth, sulforhodamine B; 5 days): > 20 µM
C=CC(=O)N1CCCC(n2c(=O)c3ncccc3n(Cc3ccc(Oc4ccccc4)cc3)c2=O)C1 (stereo not shown)  IC50 (RPMI-8226 carfilzomib-resistant; cell proliferation, MTT; 72 h): 2.5 µM
Cc1cnc(Nc2cc(C)c(C)c(C)c2)nc1Nc1ccc2oc(=O)[nH]c2c1  IC50 (human T cells and NK cells; STAT4 phosphorylation, flow cytometry; added: IL-12): 0.399 µM
C=C1C(=O)OC2C1CCC1(C)CC1CCC1(C)OC21 (stereo not shown)  IC50 (B140P murine AML cells; cell growth): 13.5 ± 2.3 µM
CCCCSc1nc(N)c2c(F)c(F)c(C#N)c(F)c2n1  IC50 (SGC-7901; cell growth or viability, MTT; 96 h): 21 µM
O=c1ccn([C@@H]2O[C@H](CSSc3ccccn3)[C@@H](O)[C@H](F)[C@H]2O)c(=O)[nH]1  IC50 (FM3A; cell growth or viability): 17 µM
N#Cc1c(F)c(Cl)c2nc(SCc3ccccc3)nc(N)c2c1F  IC50 (SGC-7901; cell growth or viability, MTT; 96 h): 25 µM
N#Cc1cccc(-c2ccc(=O)n(Cc3cccc(-c4ncc(OCC5CCN(CCCCCCCC(=O)Nc6cccc7c6C(=O)N(C6CCC(=O)NC6=O)C7=O)CC5)cn4)c3)n2)c1 (stereo not shown)  IC50 (Hs746T; cell growth or viability, CCK-8; 72 h): 0.159 µM
COC(=O)[C@@]1(C)C=C(C(=O)Nc2cccc(C(=O)Nc3ccc(Nc4nccc(-c5cccnc5)n4)c(C)c3)c2)C(=O)CC1  IC50 (SH-SY5Y with activated MKK7; western blot, refers to: phospho-c-Jun Ser73; added: doxycycline 6 h): ~0.7 µM
CN1CCCC1CS(=O)(=O)NC12CCCC(C)(CCC3C1CC3(C)C)C2 (stereo not shown)  IC50 (NCM460; cell growth or viability, CCK-8; 72 h): 28.1 µM
N#Cc1cccc(-c2ccc(=O)n(Cc3cccc(-c4ncc(OCC5CCN(CC(=O)N6CCN(c7ccc8c(c7)C(=O)N(C7CCC(=O)NC7=O)C8=O)CC6)CC5)cn4)c3)n2)c1 (stereo not shown)  IC50 (Hs746T; cell growth or viability, CCK-8; 72 h): 0.0035 µM
O=C(O)c1ccc([P+]([Au-][Cl])(c2ccccc2)c2ccccc2)cc1  IC50 (UO-31; cell viability, XTT; 72 h): 1.2 µM
C=C1CC[C@@H]2O[C@@]2(C)CC[C@H]2[C@H]1C[C@]2(C)C(=O)/C=C/C(C)(O)CO (stereo partly shown)  IC50 (KPC; cell viability, CCK-8; 72 h): 5.98 ± 0.78 µM
CCN(CC)CCN1C(=O)c2ccc3c4cccc5c(NCCN)ccc(c6ccc(c2c36)C1=O)c54  IC50 (A549, PC-3, HL-60; cytotoxicity, SRB; 72 h, range over three lines): 3.1 to 7.4 µM
COc1cc(/C=C/C(=O)/C=C(O)/C=C/c2ccc(OCC(=O)N3CCOCCOCCOCC3)c(OC)c2)ccc1OCC(=O)N1CCOCCOCCOCC1  IC50 (SK-LU-1; cell growth or viability, SRB): 12.7 µM
OCCn1ncc2c(Nc3ccc(F)cc3)ncnc21  IC50 (CHO; cell growth or viability, MTT): > 50 µM
Nc1ccn([C@@H]2O[C@H](CSSc3ccccn3)[C@@H](O)[C@H](F)[C@H]2O)c(=O)n1  IC50 (FM3A; cell growth or viability): > 500 µM
CN1CCCNC(=O)c2cccc(c2)C(=O)NCCCN(C)CCCNc2cccc3c2C(=O)c2cccc(c2C3=O)NCCC1  IC50 (SAS; cell growth or viability, CCK-8; 48 h): 0.6 µM
COC(=O)[C@H]1[C@H]2C[C@H]3O[C@@]4(CCN3C[C@H]2C[C@@H](OC(=O)c2cc(OC)c(OC)c(OC)c2)[C@@H]1OC)C(=O)Nc1cc(OC)ccc14  IC50 (SUP-T1; cell growth or viability, trypan blue; 72 h): 74.5 µM
CCC(C)C1OC(=O)C(C)(C)C(=O)C(Cc2ccccc2)OC(=O)C(C(C)C)OC(=O)C(NC(=O)c2cccc(O)c2)C(C)OC1=O (stereo not shown)  IC50 (SGC-7901; cell viability, CCK-8; 72 h): 17.1 ± 0.433 µM
O=C(O)C(Cc1ccccc1[N+](=O)[O-])=NNc1nc2c(s1)CS(=O)(=O)c1c-2ccc(Cl)c1Cl (mixture of isomers)  IC50 (CRL-2351; cell growth, sulforhodamine B; 5 days): > 20 µM
CC/C(=C(\c1ccc(O)cc1)c1ccc(OCCN(C)CCOCCOCCOCCOCCOCCOCCOCCN(C)CCOc2ccc(/C(=C(/CC)c3ccccc3)c3ccc(O)cc3)cc2)cc1)c1ccccc1  IC50 (MDA-MB-231 (ER-negative); cell growth; 96 h): 0.69 µM
COC1CCC(Nc2nc(-c3nccn3C)nc3sc(-c4ccn(C)n4)c(-c4ccccc4)c23)C1 (stereo not shown)  IC50 (PANC-1 (KRAS G12D); Western blot, refers to: phospho-MEK and phospho-ERK1/2; 6 h, added: EGF 15 min): ~1 µM
CCC(C)C1OC(=O)C(C)(C)C(O)C(Cc2ccccc2)OC(=O)C(C(C)C)OC(=O)C(NC(=O)c2cccc(O)c2)C(C)OC1=O (stereo not shown)  IC50 (NCM460; cell viability, CCK-8; 72 h): > 50 µM
N#Cc1cccc(-c2ccc(=O)n(Cc3cccc(-c4ncc(OCC5CCN(CC(=O)NCCOCCNc6cccc7c6C(=O)N(C6CCC(=O)NC6=O)C7=O)CC5)cn4)c3)n2)c1 (stereo not shown)  IC50 (Hs746T; cell growth, CCK-8; 72 h): 0.0247 ± 0.0113 µM
O=C(/C=C/c1ccc2c(c1)C(=O)N(CCCc1ccccc1)CC2)NO  IC50 (T24; cell growth, SRB; 72 h): 4.01 ± 0.9 µM
CC(=O)Oc1ccccc1C(=O)[O][Pt]([NH2])([NH2])([Cl])([Cl])[O]C(=O)CCCc1ccccc1  IC50 (six human cancer lines; cytotoxicity, MTT): 0.46 µM
N#Cc1c(-c2cccs2)cc(-c2cccc3ccccc23)n2c(Cc3ccccc3)nnc12  IC50 (U-937; cell growth or viability, MTT; 72 h): 1.99 µM
Cc1ccc(C(C)C)cc1.N=C(N)Nc1nc2ccccc2s1.[Cl-].[Cl][Ru+]  IC50 (BPH-1; cell growth or viability, MTT; 24 h): 175 µM
COc1ccc(-c2nnc(-c3ccccn3)[nH]2)cc1OC  IC50 (T24; cell growth or viability, MTT; 24 h): > 100 µM
N[C@@H](CCC(=O)N[C@@H](CS[Se]Cc1ccc(-c2cc(C(F)(F)F)nn2-c2ccc(S(N)(=O)=O)cc2)cc1)C(=O)NCC(=O)O)C(=O)O  IC50 (FF2441 human fibroblasts; cell viability, MTS; 48 h): 75.5 ± 5.6 µM
CCOC(=O)C1=C(C)NC(=O)N[C@@H]1/C=C/c1ccc(OC)cc1  IC50 (FR2; cell growth or viability, MTT; 24 h): > 70 µM
Cc1cc(C=O)cc(C)c1Oc1cc(Nc2ccc(C#N)cc2)nc2ccncc12  IC50 (H69AR (multidrug resistant); 48 h): > 127 µM
CCC1=C(CC)C2=[N+]3C1=Cc1c(CC)c(CC)c4[n]1[Ir-3]31([Cl])([C]#[O+])[n]3c(c(CC)c(CC)c3=CC3=[N+]1C(=C4)C(CC)=C3CC)=C2  IC50 (human cancer cell lines; cytotoxicity; dark): > 50 µM
[Cl][Au-][c]1n(-c2c(C(c3ccccc3)c3ccccc3)cc(C(c3ccccc3)c3ccccc3)cc2C(c2ccccc2)c2ccccc2)c2c([n+]1-c1c(C(c3ccccc3)c3ccccc3)cc(C(c3ccccc3)c3ccccc3)cc1C(c1ccccc1)c1ccccc1)-c1cccc3cccc-2c13  IC50 (CHO; cell growth or viability, MTT; 72 h): > 50 µM
COc1ccc(C[C@H]2COC(=O)[C@@H]2Cc2ccc(OCC(=O)Nc3ccc(C(=O)NO)cc3)c(OC)c2)cc1OC  IC50 (KU812; cell growth or viability, CCK-8; 48 h): > 5 µM
OCCNc1ccc(-c2nc3cc(OCCF)ccc3n3cccc23)cc1  IC50 (HEK293 DR-GFP reporter; homologous recombination, inhibitor; 48 h): 15.8 ± 8.5 µM
COC(=O)CCC(=O)[O][Pt-2]1([OH])([Cl])([Cl])[NH2+]CC[N+]1(C)C  IC50 (SW1573; cell growth or viability; 96 h): 30.4 µM
COc1ccc(-c2cc(=O)c3c(O)cc(O[C@@H]4O[C@H](CO)[C@@H](O)[C@H](O)[C@H]4O)cc3o2)cc1OC  IC50 (U87MG.ΔEGFR glioblastoma; cytotoxicity, resazurin reduction; 72 h): 27.3 ± 3 µM
C=C1CC(O)CC(C)=CCC2C1CC2(C)O (stereo not shown)  IC50 (KPC; cell viability, CCK-8; 72 h): > 50 µM
Cc1nc(-c2ccc(NC(=O)c3cccs3)cc2Cl)no1  IC50 (MRC5 lung fibroblasts; cytotoxicity, LDH release): > 30 µM
C#CCOc1cc(C(=O)C2=C(C)C(=O)c3ccccc3C2=O)ccc1C(F)(F)F  IC50 (MRC-5; cytotoxicity): 29.4 µM
CC/C(=C(\c1ccc(O)cc1)c1ccc(OCCN(C)CCOCCOCCOCCOCCOCCOCCOCCOCCOCCOCCOCCN(C)CCOc2ccc(/C(=C(/CC)c3ccccc3)c3ccc(O)cc3)cc2)cc1)c1ccccc1  IC50 (MDA-MB-231 (ER-negative); cell growth; 96 h): 0.32 µM
Cc1ccc(-n2cc(CSc3nc4ccccc4n3Cc3cn(-c4ccc(C)cc4)nn3)nn2)cc1  IC50 (Caco-2; cell growth or viability, MTT): 43.9 µg/mL
Cc1cc(C=O)cc(C)c1Oc1cc(Nc2ccc(C#N)cn2)nc2ccncc12  IC50 (H69AR (multidrug resistant); 48 h): > 126 µM
N.N.O=C(CCCc1ccccc1)[O][Pt]([Cl])([Cl])[O]C(=O)CCCc1ccccc1  IC50 (seven cancer cell lines; cytotoxicity; mean over panel): 0.26 µM
CC1CN(C(=O)c2cn(C34CCCC(C)(CCC5C3CC5(C)C)C4)nn2)CCN1 (stereo not shown)  IC50 (NCM460; cell growth or viability, CCK-8; 72 h): 17.6 µM
CC(C)=CCC1=C([O-])C(=O)c2ccccc2C1=O.CC(C)=CCC1=C([O-])C(=O)c2ccccc2C1=O.[Cu+2].c1ccc(-c2ccccn2)nc1  IC50 (HOS; cell viability, MTT; 24 h): 31.9 ± 3.1 µM
